Measurements gathered from unrelated publications.
Each numbered part is a random draw from the data of one study; scales do not carry over between parts. Substitutions count along the parent as printed.

Block 1 — method: protein-binding microarray; molecule type: double-stranded DNA, one strand shown; matrix: in vitro; concentration: 2200 nM top; setting: 60-bp whole probe; added: salmon DNA 0.4 mg/ml; baseline: random background probes; direction: higher = stronger binding; shared flanks, not repeated: GCCTAGCAC … GTCTTGATTCGCTTGACGCTGCTG
Target: Interferon regulatory factor 7, full length, phosphomimetic (IRF7, Homo sapiens, UniProt Q92985, residues 1-503, S471D/S472D/S475D/S476D/S477D/S483D/S484D/S487D)
Construct (chain): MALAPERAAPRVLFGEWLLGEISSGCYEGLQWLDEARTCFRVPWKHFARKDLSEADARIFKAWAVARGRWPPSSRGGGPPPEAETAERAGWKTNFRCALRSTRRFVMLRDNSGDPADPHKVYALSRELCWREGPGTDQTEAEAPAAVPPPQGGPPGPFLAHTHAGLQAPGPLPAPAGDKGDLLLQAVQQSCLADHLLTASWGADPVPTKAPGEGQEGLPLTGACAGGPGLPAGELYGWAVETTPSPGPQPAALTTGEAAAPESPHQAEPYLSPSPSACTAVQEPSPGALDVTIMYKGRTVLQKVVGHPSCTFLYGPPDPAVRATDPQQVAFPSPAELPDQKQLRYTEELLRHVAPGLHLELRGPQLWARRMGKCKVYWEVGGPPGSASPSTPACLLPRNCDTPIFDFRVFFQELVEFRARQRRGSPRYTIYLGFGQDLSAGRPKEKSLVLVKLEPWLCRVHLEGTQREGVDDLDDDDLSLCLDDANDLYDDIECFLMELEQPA
For `CTAGTTTTCATTTTCTGAATGTGCTAG`, “fitted relative affinity” read 7.09 z-score.
`TCATCCCTAATTCTGATACTGTGCTAG`: “fitted relative affinity” 1.56 z-score.
`TCATCTCTCCCATTCTGACTGTGCTAG` — result for “fitted relative affinity”: 2.27 z-score.
`GTCGGTCTCGGTATCGGGACGTGCTAG` — result for “fitted relative affinity”: 0.803 z-score.
For `GATGTTTTTCATTTTTTTTCGTGCTAG`, “fitted relative affinity” read 2.28 z-score.
Under “fitted relative affinity”, `TCACCTCTCACCTCGGCACTGTGCTAG` is recorded as 1.32 z-score.
Under “fitted relative affinity”, `TACTTTCTACTTCTCTTTTTGTGCTAG` is recorded as 8.71 z-score.
For `CTAGTTTTACTTTCTATCTCGTGCTAG`, “fitted relative affinity” read 5.44 z-score.
For `TGTCTGTCTGTCACCCGGACGTGCTAG`, “fitted relative affinity” read 0.607 z-score.
Under “fitted relative affinity”, `GACAGACTGGACTATCGGGACGTGCTA` is recorded as -0.445 z-score.

Block 2 — method: RNA Bind-n-Seq; molecule type: RNA; matrix: in vitro; concentration: 365 nM; baseline: no-protein control; direction: higher = stronger binding
Target: RNA binding protein fox-1 homolog 2, RRM domain, GST-SBP tag (RBFOX2, Homo sapiens, UniProt O43251-10, residues 100-194)
Setting: natural RNA segment, single round, ends assumed
Target sequence (chain): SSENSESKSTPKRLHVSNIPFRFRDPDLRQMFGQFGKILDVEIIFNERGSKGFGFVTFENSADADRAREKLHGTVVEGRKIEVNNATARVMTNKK
`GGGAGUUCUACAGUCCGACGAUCAGAGGAACUCCAGGAGUGGAAGGUGAACCUCAGAGGAGACGCUGGCUCAGGCCUUGGCCCUCUAGGCAGGGAAGCUGGACUGACCAUAUCUGCUGGGCAUCUGAUCUGCCUGGAAUUCUCGGGUGCCAA`: “RBNS enrichment (R)” 0.608.
`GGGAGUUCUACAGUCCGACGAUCGCCUCGCAGUGACUUCGCAGCACUGAGUGGCAUCCACCAGGAAUCAGGCUGGAGAAAUGGGAGCCCAGAGAGUGGAGAGUGAUUGGGAGUUACUUGUUCAUUCAAAUCUUUGGAAUUCUCGGGUGCCAA` — result for “RBNS enrichment (R)”: 0.441.
`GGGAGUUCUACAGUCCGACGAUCUCCCUGAGAGGACUUAAAAGCAGAAGGAAACCGAGAUGCUUCCCGCAGCCGUGGACGAUUCUCCAGGACUCUUUUUUUACCUUGAGCACUUGCCUCGUGAGACUUCAUAGUGGAAUUCUCGGGUGCCAA` — result for “RBNS enrichment (R)”: 0.429.
Under “RBNS enrichment (R)”, `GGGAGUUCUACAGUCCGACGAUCUCCUUGUGAAAUUCUGCUGAUUGUGCCCUACCCUUUGCACCUGACUUUUCCUAGUUGUCCUGGUGCUAAAAUGGAAGCUACACCUUGAUCUCUCCUGGCAUGAAAAUAAAUGGAAUUCUCGGGUGCCAA` is recorded as 1.25.
Under “RBNS enrichment (R)”, `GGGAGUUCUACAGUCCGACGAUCAGCCUAGCUGGAAUAUUGAUGCCAUACUAUAUUUUGCAUGCUAUUUUCUUCCCUAGAGGCAUUGAGGGCAAUUGCACUUUGGCUCUCUCAAGAUGUGUCAUUUUCAGACAUGGAAUUCUCGGGUGCCAA` is recorded as 4.77.
For `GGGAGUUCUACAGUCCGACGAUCGCCAAAGAUGGCUGGACCAUGGAAGAGAGUACCCUAUGAUGGGUUUCAACCUUGACUCGUAAAUACUUCCCUCUGCAUGGGGGUGAUCGUAGAGAGAAUCAAGGCUACCAUGGAAUUCUCGGGUGCCAA`, “RBNS enrichment (R)” read 0.288.
`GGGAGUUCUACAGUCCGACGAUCUCCAGCCAACACACAGGACUGUAAGAGGACUCUGAGCUACGUGCCCUGUGAAGACCCCCAGGCUUUGUCAUAGGAGGUCGUUCAGCUUCCCCAAAGUCAGAGGUGAUUUGUGGAAUUCUCGGGUGCCAA`: “RBNS enrichment (R)” 0.457.
Under “RBNS enrichment (R)”, `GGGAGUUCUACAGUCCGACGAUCGUUGUUUCUUUACUAGCAGAAAUCAGUCUGCAGGGAGGGGUAGUGCGUGUAUCUCACUGUUUUCCGUAUUGGGAACAGAUGGUAUAGAUUUGCCAAGGCCUUUAUUUUAAUGGAAUUCUCGGGUGCCAA` is recorded as 0.554.

Block 3 — method: DHFR PCA, deep sequencing; matrix: yeast; added: (+)-ABA 0.0091 µM; baseline: wild-type fitted maximum; direction: higher = stronger binding
Target: ABI1, truncated, D143A, DHFR fusion (Arabidopsis thaliana)
Setting: methotrexate growth selection, single substitutions
Parent: PYL1, truncated, DHFR fusion (Arabidopsis thaliana); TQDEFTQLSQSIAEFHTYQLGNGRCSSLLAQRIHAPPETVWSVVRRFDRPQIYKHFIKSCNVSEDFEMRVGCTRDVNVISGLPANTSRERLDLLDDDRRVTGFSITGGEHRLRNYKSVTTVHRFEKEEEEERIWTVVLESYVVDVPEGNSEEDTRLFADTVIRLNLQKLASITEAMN
`L20G` — result for “relative binding score”: 25.4%.
Under “relative binding score”, `Q10N` is recorded as 23.8%.
Under “relative binding score”, `E147H` is recorded as 12%.
Under “relative binding score”, `L8H` is recorded as -1.38%.
For `Q7G`, “relative binding score” read 24.6%.
`Q51G` — result for “relative binding score”: -2.93%.
For `H34S`, “relative binding score” read 19.9%.

Further values, each from its own experiment
With `PhoQ, residues 284 288 289 292 302 303 SASVAL` the fold induction was 1.07 (PhoP, residues 12 14 15 18 19 NHFRA (Escherichia coli, UniProt P23836); Sort-seq, item: YFP reporter; E. coli; PhoQ-PhoP variant library, added: 10 µM Mg2+; baseline: high Mg2+ state, higher = stronger signaling).

Repeated from above (block 2):
`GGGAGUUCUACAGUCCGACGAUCAGAGGAACUCCAGGAGUGGAAGGUGAACCUCAGAGGAGACGCUGGCUCAGGCCUUGGCCCUCUAGGCAGGGAAGCUGGACUGACCAUAUCUGCUGGGCAUCUGAUCUGCCUGGAAUUCUCGGGUGCCAA`: “RBNS enrichment (R)” 0.608.
For `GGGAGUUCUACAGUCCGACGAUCGCCAAAGAUGGCUGGACCAUGGAAGAGAGUACCCUAUGAUGGGUUUCAACCUUGACUCGUAAAUACUUCCCUCUGCAUGGGGGUGAUCGUAGAGAGAAUCAAGGCUACCAUGGAAUUCUCGGGUGCCAA`, “RBNS enrichment (R)” read 0.288.
